Measurements collected from several papers.
Parts stem from different laboratories: compare values within a part only.

Study 1
Target: Prothrombin, mature alpha-thrombin (F2, Homo sapiens, UniProt P00734)
Method: aptamer microarray, sandwich
Form: DNA with 2'F-ANA
Medium: in vitro
Concentration: 200 nM
Notes: whole 15-mer aptamer, many near background
With: Cy3 exosite-II aptamer, 400 nM
Direction: higher = stronger binding
Oligonucleotide: GGTTGGTGTGGTTGG
| Modification | mean fluorescence intensity [a.u.] |
| --- | --- |
| 2'F-ANA at 1 3 4 5 11 13 14 15 | 48 |
| 2'F-ANA at 3 4 5 6 8 11 13 15 | 119 |
| 2'F-ANA at 1 7 8 10 12 14 15 | 49 |
| 2'F-ANA at 2 8 9 10 14 | 94.4 |
| 2'F-ANA at 1 2 5 6 8 9 10 11 13 14 15 | 117 |
| 2'F-ANA at 4 5 6 8 9 10 14 | 43.9 |
| 2'F-ANA at 2 4 5 6 7 8 9 10 11 14 | 47.1 |
| 2'F-ANA at 3 4 6 9 11 12 13 15 | 449 |
| 2'F-ANA at 1 4 7 10 12 | 57.6 |
| 2'F-ANA at 1 2 4 6 7 12 13 14 | 55.6 |
| 2'F-ANA at 3 6 7 8 10 12 13 | 554 |
| 2'F-ANA at 1 2 3 8 12 | 582 |
| 2'F-ANA at 2 3 5 8 11 12 13 15 | 151 |
| 2'F-ANA at 1 5 6 7 8 9 10 11 12 13 14 | 49.4 |
| 2'F-ANA at 1 2 3 5 7 9 10 11 14 | 52.8 |
| 2'F-ANA at 2 5 10 | 90.3 |
| 2'F-ANA at 1 2 4 5 9 10 12 14 15 | 44.8 |
| 2'F-ANA at 5 7 9 12 13 | 107 |

Study 2
Target: RNA binding protein fox-1 homolog 2, RRM domain, GST-SBP tag (RBFOX2, Homo sapiens, UniProt O43251-10, residues 100-194)
Method: RNA Bind-n-Seq
Form: RNA
Medium: in vitro
Concentration: 365 nM
Notes: natural RNA segment, single round, ends assumed
Reference: no-protein control
Direction: higher = stronger binding
All sequences stand within: GGGAGUUCUACAGUCCGACGAUC … UGGAAUUCUCGGGUGCCAA
Target sequence (chain): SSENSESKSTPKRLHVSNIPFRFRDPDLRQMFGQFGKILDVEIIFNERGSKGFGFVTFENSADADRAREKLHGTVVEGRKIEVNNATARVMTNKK
| Oligonucleotide | RBNS enrichment (R) |
| --- | --- |
| AUCUUAGCCUGGCCCAGCCUGGGCUGCCUGGACAGGCUCUCCUGGCACAUUCCUGUACCCUUUAAAUGGGAAAGCAGUUAACGGAAGGGCCACAGGGUCAGAUGAGGGCU | 0.284 |
| UCACUUUCCUAGGGCCUCCGUGAGGGCUGAGAACAGCUCUGCUCUGCUCCUGUAUUAUUAACUUGCUUCAGUUAACUGACUUGAGAAACUAACCAAUUUUUACCUUCUGC | 0.578 |
| UUUCUUCCAAAGAGGCAAAAGCAGCUAGACUCGCUUACAGCACAUGCUUCGCUCCAUGGUAUGGGUGGACACCUACACUUGUCAGUAGCAGUCUUAAACUCCUCACUGCC | 0.407 |
| ACCCGGCAGCUUCUGGAGUUUGUCAGUGGAGGCAGAGGGGAUCCGGCCAGGCCCCUCUGUCCAGAAGGAGCUGCCCUGAGGACCAUCUUAGCGGCCCUGUCCUCUUUUUC | 1.08 |
| CAGUCCCUGAACUGAGCUGUUUACAGGACUGGGGAGGCUCCACCCAGAAGGCUUUCAUUUGUACUCUGCUGGGAGUGACUGGGAAAAACUCCUUCCCUGCUGCUGAGUGG | 0.4 |
| UACCUGAAGCCAAAGCCAUUGCUAGCCUUACCCCUGUGAAGGAGACAUUGGAUUCCCCAGUGAGAUCAUCUAGAAACCAUCUAAAUAAACCACUCUAUAUUUUAUGAAUU | 0.465 |
| GGCAGCAAGAACGAAGCAGGAUGUUGUCACUCCCGUCUGAAUAAAGCUCCAUGAGCUGGGUUGGAAAGCUGAACAUUUAUCUUGCUUUCUUCUUCCCACCUCUUUCCCUG | 1.71 |
| UUAAACUAAAGAUCACGUCUCUGUUUUUAAAUUAUGCUAACACCACCACAGAUUAUGUUGACGUAUUUUCUUCUGUAUUUUCUUGGUGGGACUUGAGAUUUGAGGAAAAA | 0.311 |
| AGAGCAAGCCUGAAGACGGCCCCUGGAAGACAAACCCAAGCUGAGGGAAUCCAGGCCCAGCAAGAGACAUGCCAAUGGCGACUGUAGGUCCCUCCAUGUGUGCUGACUCC | 0.547 |
| UAAAGGUGUCCAAGGCAGCUGCAGAUUUGAUGGCCUACUGUGAAGCACAUGCCAAGGAAGACCCCCUCCUGACCCCUGUUCCGGCUUCAGAAAACCCGUUUAGGGAGAAG | 0.172 |
| AUAUGUGCCUGAUAUUUUGUGGAUACCUCCCCUGCACUGGCAAAACACUAUGCUUUUGGGUGUUAGACUGAAAUAUUUUAAGAGUAUUUAACCUUUCCAGUAUUCUGUUU | 1.94 |
| AUCUGGACUGGUAAAAUCUUGAUGAGGCUCAUAAAAUGAGUUUGGGAAUUGUGUAUAGCUGAUUUUUUGUGGGAAACUGUUUACUUCAUUCAAAGGUUCUUGAGACUCUU | 0.747 |

Study 3
Target: RING finger protein unkempt homolog, zinc fingers 1-6, GST-SBP tag (UNK, Homo sapiens, UniProt Q9C0B0, residues 30-357)
Chain of UniProt Q9C0B0 (30-357, looked up): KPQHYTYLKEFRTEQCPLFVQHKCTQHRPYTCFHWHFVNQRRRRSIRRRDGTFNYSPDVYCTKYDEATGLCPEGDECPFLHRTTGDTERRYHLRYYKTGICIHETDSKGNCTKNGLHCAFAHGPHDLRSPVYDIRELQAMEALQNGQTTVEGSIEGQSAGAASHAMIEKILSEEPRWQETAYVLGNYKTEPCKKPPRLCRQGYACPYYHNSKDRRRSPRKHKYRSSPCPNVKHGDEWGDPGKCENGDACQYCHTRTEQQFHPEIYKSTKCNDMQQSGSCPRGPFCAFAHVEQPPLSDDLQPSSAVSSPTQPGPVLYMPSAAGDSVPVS
Method: RNA Bind-n-Seq
Form: RNA
Medium: in vitro
Concentration: not given
Notes: RNA with constant flanks, ends assumed
Reference: input RNA pool
Direction: higher = stronger binding
All sequences stand within: GGGAGUUCUACAGUCCGACGAUC … CAACAGAGGAUUGAGCAUCA
| Oligonucleotide | bound/input enrichment |
| --- | --- |
| GUCCUUAUUGAUCCUUUUUCUUGGCGUUACCAUUUUUGAAGCAAAGUUAACCUAGCUUUCCCGUUUGAGCUUUCUUUUUGGCCGUCUUUAAAAAAAUUUUUUUUUUUAAUCUAUAAAAUA | 1.64 ratio |
| ACCCUCAUCAACAUCCCGUCAUUAAAUGACAGUGACUCAGAAAUAGAAGAUAUUUCAGAAACCGAGUCAAACCGAUCAUUUUCUCCAGAGGAGAGACGUCAUCAGUAUUCUGAUUAUGAU | 0.159 ratio |
| GUGAAUCUUUAACAUUACCUGGUGUGUUCCCUAACAUUCAAACUGUGCAUUGGCCAUACCCUCCGGAGUGGUUUGAGUAGUACAGACCUCGAAGCCUUGCUGCUAACACUGAGGUAGCUC | 0.197 ratio |
| UAUGAUCAAGUUCUUGUGGAGUCAGACAAUGAGAACCGCAUGGAGGAGAGCAAAGCACUCUUCCGAACAAUUAUCACCUACCCCUGGUUCCAGAACUCCUCUGUGAUUCUGUUCUUAAAC | 0.164 ratio |
| AAGGGAGAUUAUUUCCGGUAUCUUGCUGAAGUAGCUUGUGGCGAUGAUCGAAAACAAACAACCGAAAAUUCCCAAGGAGCCUACCAAGAGGCGUUUGAUAUAAGCAAGAAGGAGAUGCAG | 0.383 ratio |
| CUGUAGUCCUCAGAAAGGAAGCUCCAGGACAUUUCAUGACUAUAAUGCAUGCACUAUUUAUACCGACUGACCUGGCUUUAAAAGAUGGAGCCUGGCAAGUUCCUCACAUAAUCAAUGUAU | 0.116 ratio |
| UCUUAAUCAUAGUCUACCAUCAAAUAUUUUAGGAGUAUCUUUAAUGUUUAGAUAGUAUAUCCGCAGCAUGCAAUAAUUACAUCAUAAGUUCUCAAGCAGAGGCAGUCUAUUGCAAGGACC | 2.36 ratio |
| CACUCGAGCCAGCACCACCGUUCUCACGCCCUGAGCUGCAGACAGCUAGGCGGUUUUAUCCCGUUUGAACCAGGCUGCUGGAGCUUGCUCCCUCCCGCCCUCUCUCUUUUUUUUCCACGG | 0.194 ratio |
| CUAUGUAAGUUUCAUUUAGAAAGACAUGCAUUUAUAUUUUGUUUCUGUAAUAUUCUACUGCCGGUGAAAUCUUUUCAAAAAUCAAGAGACUGGGUAGAUAAGAAUAUAUGAAUGACUAAU | 0.437 ratio |
| CGAGACAAAGCAUCUAGAAAUAUGAGAGGGUCACGGAUGAAUGGACUUCCAAGUCCCACUCACCGUGCCCACUGUAGCUUCUACAGAACCAGAACCUUGCAGGCAUUAAGUAAUGAGAAG | 0.399 ratio |
| AGGAGGAGGUUUGCUUCCCGGAUCAUAGAUAGUCUGUUUAAUACAGUAACUGAUAAGAAGACCGCUAUUUUGGGAUUUGCAUUCAAAAAGGACACUGGUGAUACAAGAGAAUCUUCUAGU | 5.41 ratio |

Study 4
Target: Histone acetyltransferase KAT6A, both winged helices, GST fusion (KAT6A, Homo sapiens, UniProt Q92794, residues 1-181)
Method: protein binding microarray
Form: double-stranded DNA, one strand shown
Medium: in vitro
Concentration: not given
Notes: 8-mer, flanks averaged, mean of 2 arrays, mostly near background
Reference: not given
Direction: higher = stronger binding
Target sequence (chain): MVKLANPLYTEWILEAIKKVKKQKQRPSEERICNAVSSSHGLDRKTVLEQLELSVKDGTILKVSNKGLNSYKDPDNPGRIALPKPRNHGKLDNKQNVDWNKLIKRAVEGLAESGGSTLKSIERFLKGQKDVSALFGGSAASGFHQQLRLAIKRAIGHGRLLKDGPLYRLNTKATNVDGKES
| Oligonucleotide | E-score |
| --- | --- |
| TGTAAAAA | -0.186 |
| AACGCTAA | 0.086 |
| CACACGCG | 0.288 |
| GGACTAAC | -0.0411 |
| CGGCACAG | 0.224 |
| CGCCACTC | 0.105 |
| ATTATCCC | -0.14 |
| TCATCCGA | 0.0688 |
| AAGGATAC | -0.000205 |
| ACAGCGCG | 0.34 |
| CAACAATA | -0.0739 |
| GGCAGCCC | 0.00693 |
| AATAAAAC | -0.0953 |
| CAAAGATC | 0.0261 |
| ACCCCGCG | 0.291 |
| ACGGGTTC | 0.212 |
| ATACCATG | -0.125 |
| CCAATCTA | -0.189 |
| AGCGCCTC | 0.239 |
| CCGTTTCA | 0.145 |
| AATTTGTG | 0.0448 |
| ACTATCAG | -0.184 |
| AGGCGCGC | 0.372 |
| AATACGTA | 0.0403 |
| AGGATTAT | -0.189 |

Study 5
Target: Interferon regulatory factor 7, full length, phosphomimetic (IRF7, Homo sapiens, UniProt Q92985, residues 1-503, S471D/S472D/S475D/S476D/S477D/S483D/S484D/S487D)
Method: protein-binding microarray
Form: double-stranded DNA, one strand shown
Medium: in vitro
Concentration: 2200 nM top
Notes: 60-bp whole probe
With: salmon DNA 0.4 mg/ml
Reference: random background probes
Direction: higher = stronger binding
All sequences stand within: GCCTAGCAC … GTCTTGATTCGCTTGACGCTGCTG
Construct (chain): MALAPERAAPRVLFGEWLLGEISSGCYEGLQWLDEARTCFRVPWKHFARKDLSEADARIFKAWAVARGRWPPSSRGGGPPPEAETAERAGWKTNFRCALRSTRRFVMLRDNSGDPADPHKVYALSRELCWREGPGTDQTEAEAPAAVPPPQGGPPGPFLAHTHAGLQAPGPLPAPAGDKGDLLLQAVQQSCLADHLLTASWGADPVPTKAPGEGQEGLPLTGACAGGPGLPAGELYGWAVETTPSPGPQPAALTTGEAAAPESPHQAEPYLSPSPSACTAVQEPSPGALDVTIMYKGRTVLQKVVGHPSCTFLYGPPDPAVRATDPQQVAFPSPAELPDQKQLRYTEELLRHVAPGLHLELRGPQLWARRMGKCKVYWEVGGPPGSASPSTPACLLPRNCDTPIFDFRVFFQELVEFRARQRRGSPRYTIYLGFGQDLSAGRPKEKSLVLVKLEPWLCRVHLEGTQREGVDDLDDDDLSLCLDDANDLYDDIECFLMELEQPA
| Oligonucleotide | fitted relative affinity [z-score] |
| --- | --- |
| TTTGGTCTCGGTTTCGGTTAGTGCTAG | 7.32 |
| TAAGGTTTCGGGTATCGGTTAGTGCTA | 5.89 |
| TTAGGTCTCGGTCTCTGTTAGTGCTAG | 1.1 |
| TTAGATATCGGTTTCGGTTAGTGCTAG | 7.26 |
| TCAAATATATATTCATAACTGTGCTAG | 0.0938 |
| TCAACAATGGCTTTGCCACTGTGCTAG | -0.198 |
| ATATTTCCCAGAACTGGAGTGGTGCTA | 0.722 |
| TTAAGTTTCCTTTTCCTTTAGTGCTAG | 9.18 |
| TTAGATTCCACTTTCGATTAGTGCTAG | 8.92 |
| TTAGATATCGGGACTGGACTAGTGCTA | -0.54 |
| GCAGGGCAGGCAGGCTGAGGGTGCTAG | -1.58 |
| TTAGGGTTCGGTTCCGGTTAGTGCTAG | 2.21 |
| TTAGATTTCGGGTTTCGTTTAGTGCTA | 7.02 |
| GACGGTATCCTACTGCAGACGTGCTAG | 0.588 |
| TGAGAACTGAGTTTCGATTAGTGCTAG | 3.46 |
| GAAAGGTACCATGGTGGCTCGTGCTAG | 0.288 |
| TTCGGTCTCCTTTTCCTTTAGTGCTAG | 2.91 |
| GGGTCTTCAGGTTCTCCCCCAGTGCTA | 0.0517 |
